Published values of several laboratories.
Protocols differ between the studies behind these lines. ± gives the spread as reported.
Target: Mu-type opioid receptor (Oprm1, Rattus norvegicus, UniProt P33535)
Sequence of UniProt P33535 (whole entry, looked up): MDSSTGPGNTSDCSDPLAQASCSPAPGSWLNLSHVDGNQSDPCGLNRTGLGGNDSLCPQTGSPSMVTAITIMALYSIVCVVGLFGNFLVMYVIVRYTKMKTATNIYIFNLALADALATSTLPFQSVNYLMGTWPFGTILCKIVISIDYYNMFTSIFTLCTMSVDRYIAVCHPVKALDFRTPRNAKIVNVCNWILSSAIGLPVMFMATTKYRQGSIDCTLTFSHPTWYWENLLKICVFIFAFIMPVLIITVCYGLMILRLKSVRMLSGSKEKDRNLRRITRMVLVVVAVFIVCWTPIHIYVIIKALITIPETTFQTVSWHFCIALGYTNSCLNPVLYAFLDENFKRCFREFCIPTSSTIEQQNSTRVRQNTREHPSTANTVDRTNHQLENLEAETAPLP

Cc1cc(O)cc(C)c1CC(N)C(=O)NC1CCNc2c(C(=O)Nc3ccccc3)cc(Cc3ccccc3)cc21 (stereo not drawn) — efficacy (agonist; C6 cells expressing MOR; relative to: DAMGO at 10 µM): 49%
Cc1cc(O)cc(C)c1CC(N)C(=O)NC1CCNc2ccc(CN3CCc4ccccc4C3)cc21 (stereo not drawn) — maximal stimulation (agonist; 10 µM; relative to: DAMGO): 105 ± 6%
CC(=O)N[C@@H](Cc1ccc(O)cc1)C(=O)N[C@@H](C(=O)N[C@H](C(=O)N[C@H](Cc1ccccc1)C(N)=O)C(C)C)C(C)C — activity (GIRK current, agonist, whole-cell patch clamp; rat brain slice, locus coeruleus neurons; 10 to 30 µM): inactive
CCCCc1cc(Cc2ccccc2)cc2c1NCCC2NC(=O)C(N)Cc1c(C)cc(O)cc1C (stereo not drawn) — efficacy (agonist; C6 cells expressing MOR; relative to: DAMGO at 10 µM): 85%
Cc1cc(O)cc(C)c1C[C@H](N)C(=O)N[C@@H]1CSCCSC(C)(C)[C@H](C(=O)O)NC(=O)C2(Cc3ccccc3C2)NC1=O — maximal inhibition (cAMP production, inhibitor; C6 cells expressing mu opioid receptor; with: forskolin): 77 ± 2.4%
CC(C)C[C@H](NC(=O)[C@@H]1CCCN1C(=O)[C@@H]1NC(=O)[C@H](Cc2ccccc2)NC(=O)CNC(=O)[C@H](NC(=O)[C@@H](N)Cc2ccc(O)cc2)C(C)(C)SSC1(C)C)C(=O)N[C@@H](Cc1c[nH]c2ccccc12)C(=O)NCc1cc(C(F)(F)F)cc(C(F)(F)F)c1 — Emax (GTPγS binding, agonist, radiometric; cell membranes): 28%
CCCC[C@@H](C(=O)N[C@@H](CC(=O)O)C(=O)N[C@@H](Cc1ccccc1)C(N)=O)N(C)C(=O)[C@@H](Cc1c[nH]c2ccccc12)NC(=O)CNC(=O)[C@@H](Cc1ccccc1)NC(=O)[C@@H](N)Cc1ccc(O)cc1 — EC50 (GTPγS binding, agonist): 52.7 nM
NCc1ccc2[nH]c3c(c2c1)CC1(O)C2Cc4ccc(O)c5c4C1(CCN2CC1CC1)C3O5 (stereo not drawn) — Ke (antagonist; C6 cells expressing µ receptor; with: DAMGO): 11.8 ± 2.7 nM
Cc1cc(O)cc(C)c1C[C@H](N)C(=O)N[C@@H]1CSCCSC(C)(C)[C@H](C(N)=O)NC(=O)C2(Cc3ccccc3C2)NC1=O — potency ratio (G protein activation, agonist; relative to: compound over morphine, higher = more potent): 480 fold
Cc1cc(O)cc(C)c1CC(N)C(=O)NC1CCNc2ccc(CN3CCOCC3)cc21 (stereo not drawn) — maximal stimulation (agonist; 10 µM; relative to: DAMGO): 82 ± 2%
CC(C)C[C@H](NC(=O)[C@@H](NC(=O)CNC(=O)[C@H](NC(=O)[C@@H](N)Cc1ccc(O)cc1)[C@H](C)O)C1Cc2ccccc2C1)C(=O)N[C@@H](CO)C(N)=O — Emax (GTPγS binding, agonist, radiometric; cell membranes): 70%
CC(=O)N1CCC(NC(=O)C(N)Cc2c(C)cc(O)cc2C)c2cc(CN3CCC4CCCCC4C3)ccc21 (stereo not drawn) — maximal stimulation (agonist; 10 µM; relative to: DAMGO): 72 ± 3%
Cc1cc(O)cc(C)c1CC(N)C(=O)NC1CCNc2c(C(=O)O)cc(Cc3ccccc3)cc21 (stereo not drawn) — efficacy (agonist; C6 cells expressing MOR; relative to: DAMGO at 10 µM): 67%
Cc1cc(O)cc(C)c1C[C@H](N)C(=O)N1Cc2ccccc2C[C@H]1CN[C@@H](Cc1ccccc1)C(=O)N[C@@H](Cc1ccccc1)C(N)=O — maximal inhibition (cAMP production, inhibitor; C6 cells expressing mu opioid receptor; with: forskolin): 64 ± 10%
Cc1cc(O)cc(C)c1CC(N)C(=O)NC1CCNc2c1cc(Cc1ccccc1)cc2C(F)(F)F (stereo not drawn) — efficacy (agonist; C6 cells expressing MOR; relative to: DAMGO at 10 µM): 70%
CC(C)C[C@H](NC(=O)[C@H](Cc1ccc2ccccc2c1)NC(=O)CNC(=O)[C@H](NC(=O)[C@@H](N)Cc1ccc(O)cc1)[C@H](C)O)C(=O)N[C@@H](CO[C@@H]1O[C@H](CO)[C@@H](O)[C@H](O)[C@H]1O)C(N)=O — Emax (GTPγS binding, agonist, radiometric; cell membranes): 93%
Cc1cc(O)cc(C)c1CC(N)C(=O)NC1CCNc2ccc(Cc3cccnc3)cc21 (stereo not drawn) — maximal stimulation (agonist; 10 µM; relative to: DAMGO): 37 ± 7%
Cc1cc(O)cc(C)c1CC(N)C(=O)NC1CCNc2c(Cc3ccccc3)cc(Cc3ccccc3)cc21 (stereo not drawn) — efficacy (agonist; C6 cells expressing MOR; relative to: DAMGO at 10 µM): 96%
Cc1cc(O)cc(C)c1CC(N)C(=O)NC1CCNc2ccc(CN3CCC4CCCCC4C3)cc21 (stereo not drawn) — maximal stimulation (agonist; 10 µM; relative to: DAMGO): 56 ± 2%
CCc1cc(Cc2ccccc2)cc2c1NCCC2NC(=O)C(N)Cc1c(C)cc(O)cc1C (stereo not drawn) — efficacy (agonist; C6 cells expressing MOR; relative to: DAMGO at 10 µM): 74%
NC(=O)[C@H](CO)NC(=O)[C@@H]1CCCN1C(=O)[C@H](Cc1ccc(O)cc1)NC(=O)CNC(=O)[C@H](Cc1ccccc1)NC(=O)[C@@H](CCCCN=C=S)NC(=O)[C@@H](N)Cc1ccc(O)cc1 — inhibition ([3H]DAMGO binding, wash-resistant binding; about IC50): 31 ± 2%
